# Results gathered from unrelated publications.
# Each line is one published result; not all experiments were run side by side.
Structure (SMILES),test,system,setting,half-life [h]
N=C(N)NCCC[C@@H]1NC(=O)[C@H](CO)NC(=O)[C@@H](NC(=O)[C@H](CO)NC(=O)[C@H](CO)NC(=O)[C@H](Cc2c[nH]c3ccccc23)NC(=O)CNC(=O)[C@H](CO)NC(=O)[C@@H](N)Cc2c[nH]c3ccccc23)CSSC[C@@H](C(=O)NCC(=O)O)NC(=O)[C@H](CO)NC1=O,,"patients, plasma","intravenous, 5 mg/kg, thrice weekly, median",0.302
Cc1c(Cc2cccc(OC(C)(C)C(=O)O)c2)c2ccc(C(=O)NCc3cccc(C(C)(C)C)c3)cc2n1CC1CCC1,,human liver microsomes,"1 µM, together with: microsomes 1 mg/mL",0.483
O=Cc1cc(C(F)(F)F)ccc1B(O)O,"chemical stability, HPLC-MS",borate buffered saline,"pH 10.2, no N-acetyl-lysine",447
CC(C)C[C@H](NC(=O)[C@H](Cc1ccc(O)cc1)NC(=O)[C@H](CC(N)=O)NC(=O)[C@H](CO)NC(=O)[C@H](CCCNC(=N)N)NC(=O)[C@H](Cc1ccc(O)cc1)NC(=O)CNC(=O)[C@H](CCCNC(=N)N)NC(=O)[C@H](Cc1c[nH]cn1)NC(=O)[C@H](CO)NC(=O)[C@H](Cc1c[nH]cn1)NC(=O)[C@H](Cc1c[nH]cn1)NC(=O)[C@H](CCCCN)NC(=O)[C@H](CCC(=O)O)NC(=O)[C@H](Cc1c[nH]cn1)NC(=O)[C@H](Cc1ccccc1)NC(=O)[C@H](CCCCN)NC(=O)[C@H](CCCNC(=N)N)NC(=O)[C@H](CCCCN)NC(=O)[C@H](Cc1ccc(O)cc1)NC(=O)CNC(=O)[C@H](Cc1c[nH]cn1)NC(=O)[C@H](Cc1c[nH]cn1)NC(=O)[C@H](CCCNC(=N)N)NC(=O)[C@H](CCCCN)NC(=O)[C@H](C)NC(=O)[C@H](Cc1c[nH]cn1)NC(=O)[C@H](CO)NC(=O)[C@@H](N)CC(=O)O)C(=O)N[C@@H](Cc1ccc(O)cc1)C(=O)N[C@@H](CC(=O)O)C(=O)N[C@@H](CC(N)=O)C(=O)O,,human parotid saliva,endogenous acidic PRPs,7.2
CCN(CC)c1ccc2cc(C(=O)ON3C(=O)CCC3=O)c(=O)oc2c1,"reactivity with N-α-acetyl-lysine, HPLC-MS",,pH 10.2,< 0.0167
C=Cn1cccn1,,,pH 7.4,74.5
O=C(O)Cc1ccccc1Nc1c(Cl)cccc1Cl,,human liver microsomes,"1 nM, 0 to 60 min, 37 °C",0.182
CC(=O)O[C@H]1C(=O)[C@@]2(C)[C@H]([C@H](OC(=O)c3ccccc3)[C@]3(O)C[C@H](OC(=O)[C@H](OCOP(=O)(O)O)[C@@H](NC(=O)c4ccccc4)c4ccccc4)C(C)=C1C3(C)C)[C@]1(OC(C)=O)CO[C@@H]1C[C@@H]2O,,simulated gastric fluid,"10 µM, 2 h incubation, pH 1.2",> 2
Cn1cnc([N+](=O)[O-])c1Sc1ccccc1C(=O)NCCC(N)=O,blood stability,Beagle dog blood,"1 µM, 37 °C",0.878
Cc1c(Cc2ccc(Cl)c(O[C@H](C)C(=O)O)c2)c2ccc(C(=O)N[C@@H](C)c3ccc(C(C)(C)C)cc3)cc2n1C,,mouse liver microsomes,"1 µM, together with: microsomes 1 mg/mL",> 1
CCCC/C=C/C(=O)N[C@@H](Cc1cc(F)cc(F)c1)C(=O)N[C@@H]1C(=O)N2CCC[C@H]2C(=O)N2CCCC[C@H]2C(=O)N[C@@H](C)C(=O)N2CCC[C@H]2C(=O)O[C@H]1C,"H-D exchange, 1H NMR, refers to: alanine amide hydrogen",CD3OD,25 °C,167
Cc1c(Cc2cc(F)cc(OC(C)(C)C(=O)O)c2)c2ccc(C(=O)N[C@@H](C)c3cccc(C(C)(C)C)c3)cc2n1CC(C)C,,human liver microsomes,"1 µM, together with: microsomes 1 mg/mL",> 1
O=CC1C(=O)Nc2ccccc21 (centres unmarked),"chemical stability, HPLC-MS",borate buffered saline,"pH 10.2, no N-acetyl-lysine",154
Cc1c(Cc2cccc(OC(C)(C)C(=O)O)c2)c2ccc(C(=O)N[C@@H](C)c3cc(C(C)(C)C)ccc3F)cc2n1CC(C)C,,mouse liver microsomes,"1 µM, together with: microsomes 1 mg/mL",> 1
O=c1c(-c2cnn(-c3ccccc3)c2)c(C(F)(F)F)oc2c(O)c(O)ccc12,,human plasma,,> 8.33
Cc1c(Cc2ccc(Cl)c(OC(C)C(=O)O)c2)c2ccc(C(=O)NC(C)c3ccc(C(C)(C)C)cc3)cc2n1CC1CCC1 (centres unmarked),,human liver microsomes,"1 µM, together with: microsomes 1 mg/mL",> 1
Brc1cccnc1,,,pH 7.4,45.7

# Some of these lines once more:
Structure (SMILES),test,system,setting,half-life [h]
N=C(N)NCCC[C@@H]1NC(=O)[C@H](CO)NC(=O)[C@@H](NC(=O)[C@H](CO)NC(=O)[C@H](CO)NC(=O)[C@H](Cc2c[nH]c3ccccc23)NC(=O)CNC(=O)[C@H](CO)NC(=O)[C@@H](N)Cc2c[nH]c3ccccc23)CSSC[C@@H](C(=O)NCC(=O)O)NC(=O)[C@H](CO)NC1=O,,"patients, plasma","intravenous, 5 mg/kg, thrice weekly, median",0.302
Brc1cccnc1,,,pH 7.4,45.7
